{"data": "Published values pooled from the literature", "note": "Each line is one published result; not all experiments were run side by side. ± gives the spread as reported."}
{"Structure (SMILES)": "COc1cc2c(cc1OC)CN(CCCCn1ccc3cc(OCC[18F])ccc31)C2", "system": "male ICR mice", "setting": "intravenous, 15 min post-injection", "measurement": "brain uptake", "result": "3.7 ± 0.26 %ID/g"}
{"Structure (SMILES)": "N#Cc1nc(N2CCOCC2)nc(N(Cc2ccc(F)cc2)CC2CCCNC2)n1 (stereo not drawn)", "system": "female CD-1 mice", "setting": "intraperitoneal, 10 mg/kg, 0.5 h", "measurement": "brain concentration", "result": "36.1 ng/g"}
{"Structure (SMILES)": "COc1cccc(OCCN2CCC[C@H](CN3CCc4cc(OC)c(OC)cc4CC3=O)C2)c1", "system": "C57BL/6 mice, brain", "setting": "intraperitoneal, 20 mg/kg, 15 min", "how to read": "relative to: compound over cilobradine", "measurement": "brain concentration ratio", "result": "> 1"}
{"Structure (SMILES)": "C[C@H](Oc1cc(-c2cnn(C3CCN(CC[18F])CC3)c2)cnc1N)c1c(Cl)ccc(F)c1Cl", "assay": "PET", "system": "healthy nude mice, brain", "measurement": "brain clearance time", "result": "≤ 30 min"}
{"Structure (SMILES)": "COc1ccc(OC)c(/C(=C\\c2ccc(O)c(O)c2)C(=O)NCCc2ccc(O)cc2)c1", "system": "KM mice, brain", "setting": "oral, 50 mg/kg, below detection limit", "measurement": "brain concentration", "result": "< 0.1 ng/mL"}
{"Structure (SMILES)": "Cc1cc2c(c(=O)o1)C=C1CCC(C(C)CNCc3ccc(O)cc3)CC1O2 (stereo not drawn)", "assay": "HPLC-MS", "system": "5xFAD mice", "setting": "oral in drinking water, dose not given, two months", "measurement": "brain concentration", "result": "4300 ± 890 nM"}
{"Structure (SMILES)": "CN(C)C(=O)c1ncn2c(=O)n(C)nnc12", "system": "CD-1 IGS mice, brain and serum", "setting": "intravenous, 25 mg/kg, 5 min", "how to read": "relative to: temozolomide", "measurement": "brain to serum ratio", "result": "> 3 fold"}
{"Structure (SMILES)": "CC(C)CCN(Cc1ccc(F)cc1)c1nc(C#N)nc(N2CCOCC2)n1", "system": "female CD-1 mice", "setting": "intraperitoneal, 10 mg/kg, 0.5 h", "measurement": "brain concentration", "result": "90.8 ng/g"}
{"Structure (SMILES)": "N=C(N)NCCC[C@@H]1NC(=O)[C@H](Cc2c[nH]c3ccccc23)NC(=O)[C@@H](CC2CCCCC2)NC(=O)[C@@H]2CCCN2C(=O)[C@@H](NC(=O)CCc2ccccc2)CCCNC1=O", "system": "C57BL/6J mice, brain", "setting": "intravenous, 1 mg/kg, up to 120 h", "measurement": "brain elimination time", "result": "≤ 24 h"}
{"Structure (SMILES)": "CC(C)C[C@H](NC(=O)[C@H](CCCNC(=N)N)NC(=O)CNC(=O)[C@@H](N)CC(C)C)C(=O)N[C@@H](CO)C(=O)N[C@@H](CCC(N)=O)C(=O)N[C@@H](CCC(=O)O)C(=O)N[C@@H](CC(C)C)C(=O)N[C@@H](Cc1c[nH]cn1)C(=O)N[C@@H](CCCNC(=N)N)C(=O)N[C@@H](CC(C)C)C(=O)N[C@@H](CCC(N)=O)C(=O)N[C@H](C(=O)N[C@@H](Cc1ccc(O)cc1)C(=O)N1CCC[C@H]1C(=O)N[C@@H](CCCNC(=N)N)C(=O)N[C@H](C(=O)N[C@@H](CC(N)=O)C(=O)N[C@H](C(=O)NCC(=O)N[C@@H](CO)C(=O)N[C@@H](CC(N)=O)C(=O)N[C@H](C(=O)N[C@@H](Cc1ccc(O)cc1)C(N)=O)[C@@H](C)O)[C@@H](C)O)[C@@H](C)O)[C@@H](C)O", "system": "wild-type mice, brain, ex vivo", "setting": "ip, 0.1 mmol Cy5-labelled, 2 h", "how to read": "relative to: saline", "measurement": "brain fluorescence", "result": "2 fold"}
{"Structure (SMILES)": "CC(C)(O)c1ccc(N2Cc3c(ccnc3-c3ccc(F)cc3OCC(F)(F)F)C2=O)cc1", "system": "C57BL/6J mice male, brain", "setting": "oral, 10 mg/kg, 6 h", "measurement": "brain concentration", "result": "~45 nM"}
{"Structure (SMILES)": "CC(C)CCN(c1nc(C#N)nc(NC2COC2)n1)C(C)c1ccc(F)cc1 (stereo not drawn)", "system": "female CD-1 mice", "setting": "intraperitoneal, 10 mg/kg, 4 h", "measurement": "brain concentration", "result": "12.5 ng/g"}
{"note": "For quick reference, copied from above:"}
{"Structure (SMILES)": "CC(C)CCN(Cc1ccc(F)cc1)c1nc(C#N)nc(N2CCOCC2)n1", "system": "female CD-1 mice", "setting": "intraperitoneal, 10 mg/kg, 0.5 h", "measurement": "brain concentration", "result": "90.8 ng/g"}
{"Structure (SMILES)": "N=C(N)NCCC[C@@H]1NC(=O)[C@H](Cc2c[nH]c3ccccc23)NC(=O)[C@@H](CC2CCCCC2)NC(=O)[C@@H]2CCCN2C(=O)[C@@H](NC(=O)CCc2ccccc2)CCCNC1=O", "system": "C57BL/6J mice, brain", "setting": "intravenous, 1 mg/kg, up to 120 h", "measurement": "brain elimination time", "result": "≤ 24 h"}
